{"data": "Assay results collected from several papers", "note": "Each numbered part is a random draw from the data of one study; scales do not carry over between parts. Changes are numbered by the printed parent chain.", "chain of UniProt Q8TD19 (whole entry, looked up)": "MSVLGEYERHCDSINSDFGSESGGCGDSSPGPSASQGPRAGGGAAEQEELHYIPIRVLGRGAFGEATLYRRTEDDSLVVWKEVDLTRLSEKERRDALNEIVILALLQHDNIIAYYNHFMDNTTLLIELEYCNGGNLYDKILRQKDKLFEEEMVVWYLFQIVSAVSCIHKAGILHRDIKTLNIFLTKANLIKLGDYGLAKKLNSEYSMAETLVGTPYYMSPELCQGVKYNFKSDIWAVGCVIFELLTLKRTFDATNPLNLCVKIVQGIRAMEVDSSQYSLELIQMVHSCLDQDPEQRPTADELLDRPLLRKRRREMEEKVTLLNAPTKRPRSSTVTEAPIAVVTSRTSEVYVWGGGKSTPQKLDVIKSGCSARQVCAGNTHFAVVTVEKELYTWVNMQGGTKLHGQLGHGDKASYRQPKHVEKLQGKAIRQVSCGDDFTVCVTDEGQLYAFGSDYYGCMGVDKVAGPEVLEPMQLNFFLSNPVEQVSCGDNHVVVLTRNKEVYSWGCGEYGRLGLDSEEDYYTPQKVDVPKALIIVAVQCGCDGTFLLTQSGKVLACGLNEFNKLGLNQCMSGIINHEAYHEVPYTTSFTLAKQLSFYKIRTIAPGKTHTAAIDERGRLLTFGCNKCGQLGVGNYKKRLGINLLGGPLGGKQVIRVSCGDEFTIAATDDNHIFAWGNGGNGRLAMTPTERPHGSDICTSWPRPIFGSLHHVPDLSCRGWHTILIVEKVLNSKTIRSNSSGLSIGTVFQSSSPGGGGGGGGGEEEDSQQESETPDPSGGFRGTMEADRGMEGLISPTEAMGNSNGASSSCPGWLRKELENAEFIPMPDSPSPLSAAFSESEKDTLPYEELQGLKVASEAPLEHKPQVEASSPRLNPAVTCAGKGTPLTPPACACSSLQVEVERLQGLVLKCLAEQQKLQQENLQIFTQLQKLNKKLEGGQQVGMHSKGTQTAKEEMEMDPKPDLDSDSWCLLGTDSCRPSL", "chain of UniProt Q15835 (whole entry, looked up)": "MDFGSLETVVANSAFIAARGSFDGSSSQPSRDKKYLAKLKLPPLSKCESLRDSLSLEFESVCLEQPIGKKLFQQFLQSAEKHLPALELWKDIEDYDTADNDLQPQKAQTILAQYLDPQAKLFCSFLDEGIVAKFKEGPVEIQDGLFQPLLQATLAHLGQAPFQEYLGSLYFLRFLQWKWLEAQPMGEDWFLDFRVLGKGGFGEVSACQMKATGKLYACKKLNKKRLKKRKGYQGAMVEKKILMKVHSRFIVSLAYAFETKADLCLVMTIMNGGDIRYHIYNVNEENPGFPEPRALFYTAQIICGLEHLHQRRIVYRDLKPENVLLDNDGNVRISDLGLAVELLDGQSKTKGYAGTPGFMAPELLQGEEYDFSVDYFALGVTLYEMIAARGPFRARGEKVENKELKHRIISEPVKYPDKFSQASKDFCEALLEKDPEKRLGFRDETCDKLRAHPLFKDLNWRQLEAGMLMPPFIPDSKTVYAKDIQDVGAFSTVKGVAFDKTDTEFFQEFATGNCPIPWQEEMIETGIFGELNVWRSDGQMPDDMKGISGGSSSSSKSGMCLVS", "chain of UniProt P11229 (whole entry, looked up)": "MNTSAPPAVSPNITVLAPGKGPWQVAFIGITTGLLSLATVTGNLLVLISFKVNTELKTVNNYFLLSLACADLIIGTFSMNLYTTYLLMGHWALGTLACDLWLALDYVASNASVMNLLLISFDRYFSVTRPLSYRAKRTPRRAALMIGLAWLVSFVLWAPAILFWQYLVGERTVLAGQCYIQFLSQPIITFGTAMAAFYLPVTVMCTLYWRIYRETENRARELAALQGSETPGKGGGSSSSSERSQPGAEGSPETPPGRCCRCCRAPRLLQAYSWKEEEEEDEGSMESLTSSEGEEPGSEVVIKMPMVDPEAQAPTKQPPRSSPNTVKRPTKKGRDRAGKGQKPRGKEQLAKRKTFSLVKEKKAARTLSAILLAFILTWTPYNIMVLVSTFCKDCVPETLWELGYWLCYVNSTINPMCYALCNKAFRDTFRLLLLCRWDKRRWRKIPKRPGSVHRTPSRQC", "chain of UniProt Q8IW41 (whole entry, looked up)": "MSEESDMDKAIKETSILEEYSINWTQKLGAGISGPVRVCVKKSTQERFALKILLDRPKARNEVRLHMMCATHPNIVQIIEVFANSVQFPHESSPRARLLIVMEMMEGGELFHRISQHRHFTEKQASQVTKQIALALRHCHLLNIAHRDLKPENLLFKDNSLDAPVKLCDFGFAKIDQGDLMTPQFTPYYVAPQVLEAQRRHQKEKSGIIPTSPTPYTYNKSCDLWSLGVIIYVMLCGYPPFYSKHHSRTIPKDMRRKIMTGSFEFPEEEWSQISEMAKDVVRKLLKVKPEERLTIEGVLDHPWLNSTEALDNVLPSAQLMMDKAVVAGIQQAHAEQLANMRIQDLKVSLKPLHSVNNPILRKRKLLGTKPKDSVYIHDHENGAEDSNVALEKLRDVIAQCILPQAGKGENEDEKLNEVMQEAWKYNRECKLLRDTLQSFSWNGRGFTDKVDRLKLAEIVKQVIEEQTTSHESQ", "chain of UniProt P15056 (whole entry, unmodified, looked up)": "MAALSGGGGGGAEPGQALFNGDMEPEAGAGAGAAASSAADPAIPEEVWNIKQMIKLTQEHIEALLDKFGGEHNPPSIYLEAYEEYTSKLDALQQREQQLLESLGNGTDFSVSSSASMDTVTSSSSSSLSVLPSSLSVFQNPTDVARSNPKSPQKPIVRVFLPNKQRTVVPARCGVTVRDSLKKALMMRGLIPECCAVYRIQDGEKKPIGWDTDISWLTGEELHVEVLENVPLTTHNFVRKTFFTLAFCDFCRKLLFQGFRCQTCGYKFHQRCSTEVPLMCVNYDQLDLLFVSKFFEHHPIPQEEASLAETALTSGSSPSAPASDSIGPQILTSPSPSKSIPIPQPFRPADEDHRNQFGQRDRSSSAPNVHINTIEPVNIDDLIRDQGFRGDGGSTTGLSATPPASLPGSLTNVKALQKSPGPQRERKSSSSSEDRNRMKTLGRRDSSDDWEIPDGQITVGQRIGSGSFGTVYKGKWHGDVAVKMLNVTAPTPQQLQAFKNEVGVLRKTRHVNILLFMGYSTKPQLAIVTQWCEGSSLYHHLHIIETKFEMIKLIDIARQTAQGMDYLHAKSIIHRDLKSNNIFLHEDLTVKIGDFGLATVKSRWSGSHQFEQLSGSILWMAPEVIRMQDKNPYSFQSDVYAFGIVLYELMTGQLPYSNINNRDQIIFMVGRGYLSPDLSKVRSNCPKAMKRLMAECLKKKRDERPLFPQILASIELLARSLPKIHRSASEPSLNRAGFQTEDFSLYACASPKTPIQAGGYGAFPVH", "chain of UniProt Q07002 (whole entry, looked up)": "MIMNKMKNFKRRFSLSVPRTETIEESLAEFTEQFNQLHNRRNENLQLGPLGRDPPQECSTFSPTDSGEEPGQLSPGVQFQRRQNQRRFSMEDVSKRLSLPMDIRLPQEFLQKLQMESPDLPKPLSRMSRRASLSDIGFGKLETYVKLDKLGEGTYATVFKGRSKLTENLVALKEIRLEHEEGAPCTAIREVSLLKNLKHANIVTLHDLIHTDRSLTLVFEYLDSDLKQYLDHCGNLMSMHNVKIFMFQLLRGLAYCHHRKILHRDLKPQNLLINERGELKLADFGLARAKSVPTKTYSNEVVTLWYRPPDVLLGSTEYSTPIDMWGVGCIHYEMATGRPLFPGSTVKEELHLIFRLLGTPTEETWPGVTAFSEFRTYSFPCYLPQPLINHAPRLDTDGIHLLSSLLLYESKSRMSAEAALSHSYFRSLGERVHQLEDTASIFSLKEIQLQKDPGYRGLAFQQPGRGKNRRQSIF"}
{"data": "Block 1", "SMILES": "CNC(=O)c1ccc(-c2cnn3ccc(C(=O)N(C)c4ccc(Cl)c(C(=O)O)c4)cc23)cc1"}
{"target": "FGFR3 (Homo sapiens, UniProt P22607)", "observed": "enzyme activity", "action": "inhibitor", "IC50 [µM]": "> 30"}
{"target": "CDK2 (Homo sapiens, UniProt P24941)", "observed": "enzyme activity", "action": "inhibitor", "IC50 [µM]": "> 30"}
{"target": "MAPKAPK5 (Homo sapiens, UniProt Q8IW41)", "observed": "enzyme activity", "action": "inhibitor", "IC50 [µM]": "> 30"}
{"target": "CHRM1 (Homo sapiens, UniProt P11229)", "observed": "cell-free assay", "IC50 [µM]": "> 30"}
{"target": "AXL (Homo sapiens, UniProt P30530)", "observed": "enzyme activity", "action": "inhibitor", "IC50 [µM]": "> 30"}
{"target": "KDR (Homo sapiens, UniProt P35968)", "observed": "enzyme activity", "action": "inhibitor", "IC50 [µM]": "> 30"}
{"target": "GRK1 (Homo sapiens, UniProt Q15835)", "observed": "enzyme activity", "action": "inhibitor", "IC50 [µM]": "> 30"}
{"target": "JAK3 (Homo sapiens, UniProt P52333)", "observed": "enzyme activity", "action": "inhibitor", "IC50 [µM]": "> 30"}
{"data": "Block 2", "target": "Sal-like protein 4, full length isoform A (SALL4, Homo sapiens, UniProt Q9UJQ4, residues 1-1053)", "method": "universal PBM", "molecule type": "double-stranded DNA, one strand shown", "matrix": "in vitro", "tested at": "600 nM", "setting": "8-mer, flanks averaged, mean of replicates", "direction": "higher = stronger binding", "chain of UniProt Q9UJQ4 (whole entry, looked up)": "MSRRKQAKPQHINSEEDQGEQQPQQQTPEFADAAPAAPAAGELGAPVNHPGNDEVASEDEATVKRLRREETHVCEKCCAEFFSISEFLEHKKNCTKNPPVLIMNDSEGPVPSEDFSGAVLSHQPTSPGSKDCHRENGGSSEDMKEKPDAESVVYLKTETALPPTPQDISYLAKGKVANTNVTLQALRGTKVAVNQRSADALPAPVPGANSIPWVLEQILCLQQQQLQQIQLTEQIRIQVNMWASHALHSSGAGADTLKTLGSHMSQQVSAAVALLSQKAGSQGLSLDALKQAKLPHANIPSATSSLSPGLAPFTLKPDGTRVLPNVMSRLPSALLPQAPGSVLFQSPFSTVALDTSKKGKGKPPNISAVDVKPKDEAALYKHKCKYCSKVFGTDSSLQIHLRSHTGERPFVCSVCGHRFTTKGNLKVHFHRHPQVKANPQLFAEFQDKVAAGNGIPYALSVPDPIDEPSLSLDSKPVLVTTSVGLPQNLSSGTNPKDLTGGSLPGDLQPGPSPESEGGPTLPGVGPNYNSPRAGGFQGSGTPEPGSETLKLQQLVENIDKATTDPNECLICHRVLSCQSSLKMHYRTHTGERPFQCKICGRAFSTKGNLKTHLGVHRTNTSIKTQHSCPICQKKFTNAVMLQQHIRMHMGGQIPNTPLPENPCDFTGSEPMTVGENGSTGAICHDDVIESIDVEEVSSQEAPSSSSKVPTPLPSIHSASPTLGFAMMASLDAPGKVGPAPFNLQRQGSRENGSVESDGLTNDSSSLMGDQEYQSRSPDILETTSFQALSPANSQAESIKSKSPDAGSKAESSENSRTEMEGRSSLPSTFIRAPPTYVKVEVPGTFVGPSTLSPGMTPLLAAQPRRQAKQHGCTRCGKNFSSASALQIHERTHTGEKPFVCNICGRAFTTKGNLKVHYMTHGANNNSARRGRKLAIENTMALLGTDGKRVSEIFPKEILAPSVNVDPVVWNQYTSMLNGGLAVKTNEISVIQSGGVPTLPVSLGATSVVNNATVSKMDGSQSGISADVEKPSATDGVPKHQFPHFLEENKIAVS"}
{"Sequence": "ATGATCAA", "E-score": 0.258}
{"Sequence": "CGCGAACC", "E-score": -0.267}
{"Sequence": "GCCGGGCC", "E-score": -0.414}
{"Sequence": "GGTTGTCA", "E-score": -0.00414}
{"Sequence": "ACTTCCCA", "E-score": -0.0127}
{"Sequence": "CTACCCCC", "E-score": -0.224}
{"Sequence": "AAAATCAC", "E-score": 0.205}
{"Sequence": "CTGAGGGA", "E-score": -0.218}
{"data": "Block 3", "Compound": "N#CC1(c2ccccn2)CCN(Cc2cc(C(=O)O)c(=O)n3ccccc23)CC1", "tested at": "1 µM"}
{"target": "CDK18 (Homo sapiens, UniProt Q07002)", "observed": "cell-free assay", "method": "competition with immobilised ligand", "remaining binding": "100%"}
{"target": "RIOK2 (Homo sapiens, UniProt Q9BVS4)", "observed": "cell-free assay", "method": "competition with immobilised ligand", "remaining binding": "92%"}
{"target": "NEK9 (Homo sapiens, UniProt Q8TD19)", "observed": "cell-free assay", "method": "competition with immobilised ligand", "remaining binding": "100%"}
{"target": "CDC42BPG (Homo sapiens, UniProt Q6DT37)", "method": "competition binding", "remaining binding": "100%"}
{"target": "BRAF (Homo sapiens, UniProt P15056, V600E)", "observed": "cell-free assay", "method": "competition with immobilised ligand", "remaining binding": "100%"}
{"target": "CDC42BPA (Homo sapiens, UniProt Q5VT25)", "observed": "cell-free assay", "method": "competition with immobilised ligand", "remaining binding": "100%"}
{"data": "Block 4", "target": "vanadate, free oxyanion", "method": "microfluidic competitive inhibition", "matrix": "in vitro, cell-free expressed", "tested at": "not given", "setting": "derived from inhibition constants, unchanged parent 676 nM", "direction": "lower = stronger binding", "starting sequence": "PafA, mature enzyme, eGFP fusion (Elizabethkingia meningoseptica, UniProt Q9KJX5); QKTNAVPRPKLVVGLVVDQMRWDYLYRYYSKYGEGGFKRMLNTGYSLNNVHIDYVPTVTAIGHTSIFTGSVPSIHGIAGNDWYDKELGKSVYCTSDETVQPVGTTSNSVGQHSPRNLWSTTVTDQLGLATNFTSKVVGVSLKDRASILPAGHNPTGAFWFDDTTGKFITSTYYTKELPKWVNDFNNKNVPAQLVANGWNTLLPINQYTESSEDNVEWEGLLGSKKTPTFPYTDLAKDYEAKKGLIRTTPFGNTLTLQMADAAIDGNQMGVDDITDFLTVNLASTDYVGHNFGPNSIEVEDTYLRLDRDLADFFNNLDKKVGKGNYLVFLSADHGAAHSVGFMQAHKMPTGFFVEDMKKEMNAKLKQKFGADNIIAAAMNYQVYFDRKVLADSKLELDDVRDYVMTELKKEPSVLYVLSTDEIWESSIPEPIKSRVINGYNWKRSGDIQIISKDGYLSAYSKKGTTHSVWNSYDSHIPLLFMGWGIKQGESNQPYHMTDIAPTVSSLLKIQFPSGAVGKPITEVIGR"}
{"Substitution": "Y231G", "oxyanion analog dissociation constant": "646 nM"}
{"Substitution": "P230V", "oxyanion analog dissociation constant": "806 nM"}
{"Substitution": "K409G", "oxyanion analog dissociation constant": "687 nM"}
{"Substitution": "K452V", "oxyanion analog dissociation constant": "682 nM"}
{"Substitution": "F167G", "oxyanion analog dissociation constant": "1.25 µM"}
{"Substitution": "L220G", "oxyanion analog dissociation constant": "594 nM"}
{"Substitution": "L396G", "oxyanion analog dissociation constant": "558 nM"}
{"Substitution": "M258V", "oxyanion analog dissociation constant": "1.06 µM"}
{"note": "A few entries again (block 3):"}
{"target": "CDK18 (Homo sapiens, UniProt Q07002)", "observed": "cell-free assay", "method": "competition with immobilised ligand", "remaining binding": "100%"}
{"target": "RIOK2 (Homo sapiens, UniProt Q9BVS4)", "observed": "cell-free assay", "method": "competition with immobilised ligand", "remaining binding": "92%"}
{"target": "NEK9 (Homo sapiens, UniProt Q8TD19)", "observed": "cell-free assay", "method": "competition with immobilised ligand", "remaining binding": "100%"}
